Results pooled from the literature.
Numbered parts are unrelated; each lists some results of a single study. Positions count from the first letter of the parent shown.

Series 1 — technique: protein-binding microarray; molecule type: double-stranded DNA, one strand shown; sample: in vitro; concentration: 250 nM; notes: 60-bp whole probe; added: salmon DNA 0.4 mg/ml; baseline: random background probes; reading: higher = stronger binding; constant ends, left off below: GCCTAGCAC … GTCTTGATTCGCTTGACGCTGCTG
Target: Interferon regulatory factor 7, full length, phosphomimetic (IRF7, Homo sapiens, UniProt Q92985, residues 1-503, S101K/S471D/S472D/S475D/S476D/S477D/S483D/S484D/S487D)
UniProt Q92985, sequence (whole entry, unmodified, looked up): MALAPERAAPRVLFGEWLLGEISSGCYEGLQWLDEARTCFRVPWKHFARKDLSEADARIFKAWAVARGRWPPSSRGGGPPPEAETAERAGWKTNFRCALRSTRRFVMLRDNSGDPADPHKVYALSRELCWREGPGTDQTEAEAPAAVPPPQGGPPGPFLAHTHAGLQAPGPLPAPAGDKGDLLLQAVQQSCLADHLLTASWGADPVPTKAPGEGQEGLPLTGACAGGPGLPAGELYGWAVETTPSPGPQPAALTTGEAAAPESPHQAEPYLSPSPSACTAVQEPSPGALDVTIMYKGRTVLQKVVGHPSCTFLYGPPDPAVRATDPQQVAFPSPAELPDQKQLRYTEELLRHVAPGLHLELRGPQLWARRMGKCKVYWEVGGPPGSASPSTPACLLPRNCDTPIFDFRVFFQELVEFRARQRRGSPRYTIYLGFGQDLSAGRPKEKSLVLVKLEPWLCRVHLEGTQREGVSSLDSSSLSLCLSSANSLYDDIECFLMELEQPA
| Sequence | log fluorescence |
| --- | --- |
| GACGGTCTCCGACTGCTGACGTGCTAG | -0.479 z-score |
| TCATTTCCCAGAACTGGAACTGTGCTA | 3.14 z-score |
| TCAAGTCCCACATCTCTGACTGTGCTA | 0.802 z-score |
| GACGGACTGGGTTTTCGGGACGTGCTA | -0.549 z-score |
| TCATCTTTCACTGCTGCACTGTGCTAG | 0.671 z-score |
| TTAGGTATCAACACTGGGTTAGTGCTA | -0.245 z-score |
| GACGGCTTCGGGTATCGGGACGTGCTA | -0.192 z-score |
| TTAGATCTCAGTCACGATTAGTGCTAG | 0.453 z-score |

Series 2 — target: FOSL1, bZIP domain (human); technique: DHFR protein complementation; sample: yeast; baseline: wild-type JUN-FOS pair; reading: higher = stronger binding
Notes: single substitutions, most at no-binding floor
Starting sequence: JUN, bZIP domain (human); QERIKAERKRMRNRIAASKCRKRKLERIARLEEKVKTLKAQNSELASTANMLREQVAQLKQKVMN; partner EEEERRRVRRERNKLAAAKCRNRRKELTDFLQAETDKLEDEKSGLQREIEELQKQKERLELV
| Variant | binding fitness [natural log] |
| --- | --- |
| S43E | -0.281 |
| V35F | -0.707 |
| E44A | -0.399 |
| E54V | -0.783 |
| N42P | -1.42 |
| R53A | -0.864 |
| E54H | -0.635 |
| L31F | -0.732 |

Series 3 — target: OGT, full length, His-tagged (human); technique: phage display, sequencing; sample: in vitro; concentration: 1 µg OGT; baseline: input library; reading: higher = stronger binding; starting sequence: peptide; NSEYMPQYQIIFAHQ
Notes: single substitutions, 15-mer displayed peptide, unchanged parent 16.7
| Variant | fold enrichment [fold] |
| --- | --- |
| E3R | 10.8 |
| A13M | 13.6 |
| A13R | 29.2 |
| F12Q | 0.261 |
| N1L | 10.9 |
| E3L | 22.1 |
| A13F | 6.98 |
| N1W | 14.3 |

Further values, each from its own experiment
| SMILES | species | sample | concentration | time | quantity | value |
| --- | --- | --- | --- | --- | --- | --- |
| NCCN(C1CCOCC1)S(=O)(=O)c1ccc(F)cc1F | human | microsomes or S9 | 2 µM | 0.5 h | remaining compound | 90.2% |

For quick reference, copied from above (series 2):
| Variant | binding fitness [natural log] |
| --- | --- |
| E54V | -0.783 |
| E44A | -0.399 |
| N42P | -1.42 |
| L31F | -0.732 |
